# Published values collected from several papers.
# Compare with care: the assays were run in different laboratories. Several values in a cell are separate wells, animals, samples, runs or records. Numbers after ± are the reported error.
# Nuclear receptor subfamily 2 group C member 2 ligand-binding domain: Nuclear receptor subfamily 2 group C member 2, ligand-binding domain (Homo sapiens, UniProt P49116)
# Sequence of UniProt P49116 (whole entry, looked up): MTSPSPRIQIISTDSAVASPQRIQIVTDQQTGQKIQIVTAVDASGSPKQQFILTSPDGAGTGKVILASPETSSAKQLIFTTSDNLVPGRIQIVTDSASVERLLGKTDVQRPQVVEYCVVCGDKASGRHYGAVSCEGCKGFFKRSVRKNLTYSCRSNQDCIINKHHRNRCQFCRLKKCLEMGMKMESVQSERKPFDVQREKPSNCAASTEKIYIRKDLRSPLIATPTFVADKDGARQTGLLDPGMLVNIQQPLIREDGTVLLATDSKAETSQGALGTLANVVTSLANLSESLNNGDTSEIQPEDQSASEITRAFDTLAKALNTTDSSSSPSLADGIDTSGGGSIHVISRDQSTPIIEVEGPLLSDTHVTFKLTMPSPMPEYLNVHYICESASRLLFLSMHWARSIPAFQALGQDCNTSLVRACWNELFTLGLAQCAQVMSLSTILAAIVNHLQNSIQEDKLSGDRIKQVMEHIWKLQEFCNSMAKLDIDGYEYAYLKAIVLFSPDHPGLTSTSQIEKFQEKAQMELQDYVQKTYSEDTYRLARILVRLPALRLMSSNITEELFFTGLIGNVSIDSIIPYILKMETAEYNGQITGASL
SMILES,tested on,test,test system,setting,endpoint,value
C=CC(=O)N1CCC(Oc2cc3c(Nc4ccc(Cl)c(Cl)c4F)ncnc3cc2OC)CC1,,,"Sprague-Dawley rat, male, plasma","oral, 2 mg/kg, added: vehicle pretreatment",Tmax,0.67 ± 0.26 h
O=C(O)CCSC[C@H]1O[C@@H]2O[C@H]3[C@H](O)[C@@H](O)[C@@H](O[C@H]4[C@H](O)[C@@H](O)[C@@H](O[C@H]5[C@H](O)[C@@H](O)[C@@H](O[C@H]6[C@H](O)[C@@H](O)[C@@H](O[C@H]7[C@H](O)[C@@H](O)[C@@H](O[C@H]8[C@H](O)[C@@H](O)[C@@H](O[C@H]9[C@H](O)[C@@H](O)[C@@H](O[C@H]1[C@H](O)[C@H]2O)O[C@@H]9CSCCC(=O)O)O[C@@H]8CSCCC(=O)O)O[C@@H]7CSCCC(=O)O)O[C@@H]6CSCCC(=O)O)O[C@@H]5CSCCC(=O)O)O[C@@H]4CSCCC(=O)O)O[C@@H]3CSCCC(=O)O,,,"Sprague Dawley rat, plasma","intravenous, 5 mg/kg, added: rocuronium bromide IV",Tmax,0.0167 h
CN1CCC[C@H](CN2c3ccccc3Sc3ccccc32)C1.Cl,,,"Wistar rats, female, kidney","oral, 16 mg/kg",Tmax,6 h
CCc1cc(C(=O)NC)c2nccc(N3CCc4c(cc(Cn5ccnc5)cc4-c4cn(C)nc4C(F)(F)F)C3=O)c2c1,,,"Sprague Dawley rat, male, plasma","oral, 100 mg/kg twice daily, 7 days",Tmax,6.5 h
Cc1cccc(Nc2ccccc2C(=O)O)c1C,Nuclear receptor subfamily 2 group C member 2 ligand-binding domain,SPR imaging,,,Kd,0.0181 nM
C1=C/COCc2cc(ccc2OCCN2CCCC2)Nc2nccc(n2)-c2cccc(c2)COC/1,,LC-MS/MS,"Sprague-Dawley rat, male, plasma","oral, 36 mg/kg, added: voriconazole 30 mg/kg oral",Tmax,7 ± 2.76 h
O=c1oc2c(O)c(O)cc3c(=O)oc4c(O)c(O)cc1c4c23,,,"rat, plasma","oral, 500 mg/kg extract, extract",Tmax,2.5 ± 0.5 h
CC(C)c1nc(N(C)S(C)(=O)=O)nc(-c2ccc(F)cc2)c1/C=C/[C@@H](O)C[C@@H](O)CC(=O)O,,,"Wistar albino rat, both sexes, plasma","oral, 20 mg/kg",Tmax,5.5 h and 3 h and 1 h
CCCCCCCOc1ccc(CCC(N)(CO)CO)cc1C(F)(F)F.Cl,,LC-MS/MS,"Sprague Dawley rat, male, plasma","oral, 1 mg/kg, single",Tmax,2 h
CSc1ccccc1C(=O)NCCn1cc(C(=O)NCc2cccc(C)n2)c(=O)c2cc3c(cc21)OC(F)(F)O3,,,"Sprague-Dawley rat, male, plasma","intramuscular, 10 mg/kg of parent drug",Tmax,1.03 ± 0.55 h
N=C(N)NCCNC(=O)C1(Nc2ccccc2)CCN(Cc2ccccc2)CC1,,,"male Sprague-Dawley rats, plasma","oral, 50 mg/kg",Tmax,0.2 h
CNC(=O)c1cccc(-c2ccc(O[C@H]3O[C@H](CO)[C@@H](O)[C@H](O)[C@@H]3O)c(C)c2)c1,,,"male Sprague-Dawley rat, plasma","intravenous, 3 mg/kg, group mean",Tmax,0.083 h
COc1cc2nccc(Oc3ccc(NC(=O)NC4CC4)c(Cl)c3)c2cc1C(N)=O,,UPLC-MS/MS,"Sprague-Dawley rat, male, plasma","oral, 10 mg/kg, without azole co-treatment",Tmax,0.92 ± 0.2 h
Cc1cccc(CNC(=O)c2cn(CCNC(=O)c3ccccc3Sc3c([N+](=O)[O-])ncn3C)c3cc4c(cc3c2=O)OC(F)(F)O4)n1,,,"Sprague-Dawley rat, male, whole blood","intramuscular, 30 mg/kg of parent drug",Tmax,0.19 ± 0.06 h
OCC1=C[C@@H](O)[C@@H]2C=CO[C@@H](O[C@@H]3O[C@H](CO)[C@@H](O)[C@H](O)[C@H]3O)[C@H]12,,,"rat, plasma","oral, 500 mg/kg Eu + 217 mg/kg Pc extract, dosed as combined Eu and Pc extracts",Tmax,2.17 ± 1.26 h
CCCCCOC(=O)Nc1nc(=O)n([C@@H]2O[C@H](C)[C@@H](O)[C@H]2O)cc1F,,,"Sprague-Dawley rat, plasma","oral, 200 mg/kg, added: chitooligosaccharide 20 min before glucosamine 250 mg/kg",Tmax,0.153 ± 0.034 h
Cc1nc(-c2cnc(NC(C)C)n(C)c2=O)ccc1Oc1ccnc(-c2cnn(C)c2)c1,,,"Sprague-Dawley rat, male, plasma","intravenous, 1 mg/kg, crossover study",Tmax,0.08 h
Cc1cccc(CNC(=O)c2cn(CCNC(=O)c3ccccc3S)c3cc4c(cc3c2=O)OC(F)(F)O4)n1,,,"Sprague-Dawley rat, male, plasma","intravenous, 20 mg/kg of parent drug",Tmax,0.083 h
CC[C@@H]([C@H](C)O)n1ncn(-c2ccc(N3CCN(c4ccc(OC[C@@H]5CO[C@@](Cn6cncn6)(c6ccc(F)cc6F)C5)cc4)CC3)cc2)c1=O,,,"Sprague-Dawley rats, plasma","oral, 40 mg/kg, added: zanubrutinib 16 mg/kg",Tmax,12 h
CCCCCCCCc1ccc(CCC(N)(CO)CO)cc1,,,"male Sprague-Dawley rat, heart","oral, 1 mg/kg, single dose",Tmax,8 h
C=CC(=O)N1CCC[C@@H](n2nc(-c3ccc(Oc4ccccc4)cc3)c3c(N)ncnc32)C1,,,"male Wistar rat, spleen","oral, 50 mg/kg",Tmax,1 h
Nc1ccccc1NC(=O)c1ccc(CNC(=O)OCc2cccnc2)cc1,OCI-Ly1,,,"1 µM, 120 h",viability,89.7%
COCCOC(=O)C1=C(C)NC(C)=C(C(=O)OC(C)C)C1c1cccc([N+](=O)[O-])c1 (stereo not shown),Nuclear receptor subfamily 2 group C member 2 ligand-binding domain,SPR imaging,,,Kd,0.218 nM
CNC(=O)c1cccc(-c2ccc([C@@H](O)[C@H]3O[C@H](CO)[C@@H](O)[C@H](O)[C@@H]3O)c(C)c2)c1,,,"Sprague-Dawley rat, male, plasma","oral, 10 mg/kg",Tmax,0.5 h
CCc1c(-c2ccccc2)c(-c2ccccc2)nn1-c1ccccc1-c1cccc(OCC(=O)O)c1,,,Sprague-Dawley rat,oral,Tmax,0.5 h and 2 h
Cc1cc(-c2ccc3cc[nH]c(=O)c3c2)ccc1O[C@H]1O[C@H](CO)[C@@H](O)[C@H](O)[C@@H]1O,,,"male Sprague-Dawley rat, plasma","oral, 10 mg/kg, group mean",Tmax,0.333 h
NS(=O)(=O)c1ccc(-n2nc(C(F)(F)F)cc2-c2ccc(CO)cc2)cc1,,,"Sprague-Dawley rat, whole blood","oral, 20 mg/kg of celecoxib",Tmax,13.3 h
COC(=O)C1=CO[C@@H](O[C@@H]2O[C@H](CO)[C@@H](O)[C@H](O)[C@H]2O)[C@@H]2C(CO)=CC[C@H]12,,,"Sprague-Dawley rat, internal jugular vein plasma","oral, 500 mg/kg Eu extract, dosed as Eu extract",Tmax,0.5 h
CCCCCCCCCCCCCCCc1cccc(O)c1C(=O)O,OCI-Ly1,,,"0.1 µM, 120 h",viability,177%
O=C(O)C1=CO[C@@H](O[C@@H]2O[C@H](CO)[C@@H](O)[C@H](O)[C@H]2O)[C@@H]2C(CO)=CC[C@H]12,,,"rat, plasma","oral, 500 mg/kg Eu extract, dosed as Eu extract",Tmax,3 ± 1.73 h
O=C1c2ccncc2C(=O)c2c1[nH]c1ccccc21,,,"Sprague-Dawley rat, female, plasma","intravenous, 1 mg/kg",Tmax,0.08 h
